Published values pooled from the literature.
Parts stem from different laboratories: compare values within a part only. Substitutions count along the parent as printed.

Study 1
Target: Histone acetyltransferase KAT6A, winged helix 1, GST fusion (KAT6A, Homo sapiens, UniProt Q92794, residues 1-85)
Technique: protein binding microarray
Molecule type: double-stranded DNA, one strand shown
Sample: in vitro
Tested at: not given
Notes: 8-mer, flanks averaged, mean of 2 arrays, mostly near background
Relative to: not given
Reading: higher = stronger binding
Measurement: E-score
Residues (chain): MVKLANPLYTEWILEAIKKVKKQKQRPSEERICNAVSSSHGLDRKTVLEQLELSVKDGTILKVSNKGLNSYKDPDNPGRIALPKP
Oligonucleotide = CTACGCAG; value = -0.0188
Oligonucleotide = CACACTGG; value = -0.142
Oligonucleotide = AGCTTGAG; value = -0.172
Oligonucleotide = AGCCATTA; value = -0.0951
Oligonucleotide = AGGTTTGG; value = -0.113
Oligonucleotide = TCAAACGA; value = -0.0896
Oligonucleotide = CCATAGTC; value = -0.0888
Oligonucleotide = CCAGTCAG; value = -0.115
Oligonucleotide = CATTTGAA; value = -0.0468
Oligonucleotide = CCGGGTCA; value = 0.204
Oligonucleotide = TACTTGAA; value = -0.268
Oligonucleotide = CAGAGTGC; value = -0.0768
Oligonucleotide = ACCATAGG; value = -0.143
Oligonucleotide = TACATTAA; value = -0.183
Oligonucleotide = ATACAACG; value = -0.0284

Study 2
Target: CCNB2, cyclin fold, Cln2 fusion (human)
Technique: yeast growth competition, sequencing
Sample: yeast
Notes: weak parent motif
Relative to: not given
Reading: higher = stronger binding
Measurement: normalised enrichment score
Starting sequence: CDKN1B docking peptide (human); PSACRNLFGPVDH
Variant = PSACRNLFGPVDN [H13N]; value = -0.0487
Variant = PSAYRNLFGPVDH [C4Y]; value = 0.384
Variant = PSACRNLFAPVDH [G9A]; value = 0.277
Variant = PIACRNLFGPVDH [S2I]; value = 0.0355
Variant = PSACRNLRGPVDH [F8R]; value = 0.477
Variant = PSHCRNLFGPVDH [A3H]; value = -0.196
Variant = PSACRNLFGHVDH [P10H]; value = 0.337
Variant = PSACRNLFGAVDH [P10A]; value = -0.134
Variant = PSACRNLVGPVDH [F8V]; value = -0.365
Variant = PSACRNMFGPVDH [L7M]; value = 0.291
Variant = KSACRNLFGPVDH [P1K]; value = 0.479
Variant = PSALRNLFGPVDH [C4L]; value = 0.69
Variant = YSACRNLFGPVDH [P1Y]; value = 0.117
Variant = PSACANLFGPVDH [R5A]; value = -0.566
Variant = PSACRELFGPVDH [N6E]; value = -0.0363
Variant = PSACRNLFGKVDH [P10K]; value = -0.101
Variant = PSACRNLFGPVDW [H13W]; value = 0.334
Variant = PSACRNLKGPVDH [F8K]; value = 0.134
Variant = PSACRNLFGPGDH [V11G]; value = 0.222

Study 3
Target: Centromere-binding protein 1, full length, His-tagged (CBF1, Saccharomyces cerevisiae, UniProt P17106, residues 1-351)
Chain of UniProt P17106 (whole entry, looked up): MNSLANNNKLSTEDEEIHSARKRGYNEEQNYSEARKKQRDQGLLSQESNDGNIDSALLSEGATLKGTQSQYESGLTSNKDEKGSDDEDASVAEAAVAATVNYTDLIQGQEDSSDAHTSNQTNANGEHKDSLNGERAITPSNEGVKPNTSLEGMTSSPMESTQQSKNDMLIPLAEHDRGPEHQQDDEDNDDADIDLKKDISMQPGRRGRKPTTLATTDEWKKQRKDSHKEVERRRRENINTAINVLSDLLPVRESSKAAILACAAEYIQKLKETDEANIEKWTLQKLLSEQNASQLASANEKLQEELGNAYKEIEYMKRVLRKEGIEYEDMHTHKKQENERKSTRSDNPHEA
Technique: competition protein-binding microarray
Molecule type: double-stranded DNA, one strand shown
Sample: in vitro
Tested at: 2 µM
Notes: whole 60-bp probe, lowest competitor level
With: Pho4 competitor, 0.05 µM
Reading: higher = stronger binding
Measurement: fluorescence intensity
Shared flanks, not repeated: … GTCTTGATTCGCTTGACGCTGCTG
Oligonucleotide = TATTGCAGCTGGTCCCACGTGGGTAAGCGGTTGGCG; value = 589 a.u.
Oligonucleotide = TAACGATGTCATTGCCACGTGGAACATCTTGATTGG; value = 840 a.u.
Oligonucleotide = ATACCAAATGTCCAGCCCGTGACGGTGCAGCAGGGT; value = 152 a.u.
Oligonucleotide = TAAGTGAGGTTCCATCACGGGGCCACCGTTCTCATT; value = 213 a.u.
Oligonucleotide = TGTGAGGATTATTGTCATGTGAAGGCGAGATAGGTA; value = 267 a.u.
Oligonucleotide = AAGGCCGAGAGGAAGCGCGTGATGGAAGCCCGATCT; value = 107 a.u.
Oligonucleotide = GTCTTGTCTCATTGATTCGTGGGTGTCCCCACTTCA; value = 75.2 a.u.
Oligonucleotide = TCCATCTTTTCTAGCACCGTGGTAGCCATATGGAGA; value = 77.6 a.u.
Oligonucleotide = TGCAGGGAGAGGTGGCACGAGGCCGAGAGACGGGAG; value = 113 a.u.
Oligonucleotide = CTTTCCCGATCTTGTAAAGTGGGTGTAGCACATTTG; value = 71.3 a.u.
Oligonucleotide = CCGCAGTGCGTAGTTGACGTGGGTAGAAAGCTAGTG; value = 47.5 a.u.
Oligonucleotide = GCTTAACCGAATCCACACGGGTCTGCCATCTTCCAT; value = 59.8 a.u.
Oligonucleotide = TGCGCAACAACTTCACACGTGTTTTTATGTCTAGAA; value = 1320 a.u.
Oligonucleotide = CTTTCCCGATCTTGCGCCGTGGGTGTAGCACATTTG; value = 90 a.u.

Mixed results
Molecule = PhoQ, residues 284 288 289 292 302 303 ASHLAV; target = PhoP, residues 12 14 15 18 19 TPLRH (Escherichia coli, UniProt P23836); test = Sort-seq, refers to: YFP reporter; test system = E. coli; conditions = PhoQ-PhoP variant library, with: 10 µM Mg2+; how to read = relative to: high Mg2+ state, higher = stronger signaling; measurement = fold induction; value = 0.218

A few entries again (study 3):
Oligonucleotide = TCCATCTTTTCTAGCACCGTGGTAGCCATATGGAGA; value = 77.6 a.u.
Oligonucleotide = ATACCAAATGTCCAGCCCGTGACGGTGCAGCAGGGT; value = 152 a.u.
Oligonucleotide = TGCAGGGAGAGGTGGCACGAGGCCGAGAGACGGGAG; value = 113 a.u.
Oligonucleotide = CTTTCCCGATCTTGTAAAGTGGGTGTAGCACATTTG; value = 71.3 a.u.
